Experimental data of several laboratories.
Parts stem from different laboratories: compare values within a part only.
Chain of UniProt P42336 (whole entry, unmodified, looked up): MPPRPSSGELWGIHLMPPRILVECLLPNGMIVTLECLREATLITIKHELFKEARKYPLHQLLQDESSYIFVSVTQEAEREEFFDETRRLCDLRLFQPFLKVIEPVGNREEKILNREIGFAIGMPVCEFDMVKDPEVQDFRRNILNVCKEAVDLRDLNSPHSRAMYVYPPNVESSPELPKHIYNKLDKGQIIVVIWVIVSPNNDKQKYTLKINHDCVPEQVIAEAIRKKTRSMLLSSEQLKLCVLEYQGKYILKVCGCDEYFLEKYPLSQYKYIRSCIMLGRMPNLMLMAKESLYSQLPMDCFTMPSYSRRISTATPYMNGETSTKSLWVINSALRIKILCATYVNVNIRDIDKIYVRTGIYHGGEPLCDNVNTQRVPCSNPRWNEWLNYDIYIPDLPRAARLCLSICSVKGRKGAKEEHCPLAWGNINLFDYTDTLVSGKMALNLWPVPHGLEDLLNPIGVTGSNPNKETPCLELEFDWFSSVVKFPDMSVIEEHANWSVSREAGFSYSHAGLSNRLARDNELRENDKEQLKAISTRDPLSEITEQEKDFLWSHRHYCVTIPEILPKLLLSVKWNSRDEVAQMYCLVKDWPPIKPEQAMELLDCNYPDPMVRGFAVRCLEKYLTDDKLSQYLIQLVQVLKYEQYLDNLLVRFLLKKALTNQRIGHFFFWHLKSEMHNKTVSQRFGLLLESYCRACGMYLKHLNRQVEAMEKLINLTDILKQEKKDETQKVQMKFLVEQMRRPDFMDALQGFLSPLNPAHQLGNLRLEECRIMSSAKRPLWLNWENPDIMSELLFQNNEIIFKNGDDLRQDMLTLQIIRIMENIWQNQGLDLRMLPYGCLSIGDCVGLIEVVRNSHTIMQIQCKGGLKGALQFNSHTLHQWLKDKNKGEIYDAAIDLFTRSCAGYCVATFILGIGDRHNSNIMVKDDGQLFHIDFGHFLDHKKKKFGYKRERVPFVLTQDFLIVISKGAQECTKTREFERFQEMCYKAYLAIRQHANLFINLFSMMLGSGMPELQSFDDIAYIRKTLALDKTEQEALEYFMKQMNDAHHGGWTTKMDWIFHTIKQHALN
Chain of UniProt O75582 (whole entry, looked up): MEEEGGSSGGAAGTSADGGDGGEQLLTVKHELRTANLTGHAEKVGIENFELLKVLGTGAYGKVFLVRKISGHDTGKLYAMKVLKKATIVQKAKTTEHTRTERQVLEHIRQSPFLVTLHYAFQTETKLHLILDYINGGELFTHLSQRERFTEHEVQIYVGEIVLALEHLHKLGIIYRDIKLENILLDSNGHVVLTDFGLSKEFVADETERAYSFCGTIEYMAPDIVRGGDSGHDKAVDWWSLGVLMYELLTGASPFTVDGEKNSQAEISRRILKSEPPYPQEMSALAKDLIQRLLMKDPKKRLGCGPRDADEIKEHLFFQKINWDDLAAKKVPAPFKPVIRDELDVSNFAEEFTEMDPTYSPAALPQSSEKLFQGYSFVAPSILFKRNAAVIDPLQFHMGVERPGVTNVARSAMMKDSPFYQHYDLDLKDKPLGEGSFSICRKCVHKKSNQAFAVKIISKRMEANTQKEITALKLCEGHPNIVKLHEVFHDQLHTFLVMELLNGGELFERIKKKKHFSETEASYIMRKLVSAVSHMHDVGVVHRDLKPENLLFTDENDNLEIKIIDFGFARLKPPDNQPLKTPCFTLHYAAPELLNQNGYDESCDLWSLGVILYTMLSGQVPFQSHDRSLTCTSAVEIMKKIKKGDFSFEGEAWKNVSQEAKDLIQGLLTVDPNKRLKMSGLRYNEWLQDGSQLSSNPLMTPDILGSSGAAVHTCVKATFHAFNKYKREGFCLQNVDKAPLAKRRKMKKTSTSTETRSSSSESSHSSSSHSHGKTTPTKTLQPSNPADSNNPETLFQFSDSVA
Chain of UniProt O00141 (whole entry, looked up): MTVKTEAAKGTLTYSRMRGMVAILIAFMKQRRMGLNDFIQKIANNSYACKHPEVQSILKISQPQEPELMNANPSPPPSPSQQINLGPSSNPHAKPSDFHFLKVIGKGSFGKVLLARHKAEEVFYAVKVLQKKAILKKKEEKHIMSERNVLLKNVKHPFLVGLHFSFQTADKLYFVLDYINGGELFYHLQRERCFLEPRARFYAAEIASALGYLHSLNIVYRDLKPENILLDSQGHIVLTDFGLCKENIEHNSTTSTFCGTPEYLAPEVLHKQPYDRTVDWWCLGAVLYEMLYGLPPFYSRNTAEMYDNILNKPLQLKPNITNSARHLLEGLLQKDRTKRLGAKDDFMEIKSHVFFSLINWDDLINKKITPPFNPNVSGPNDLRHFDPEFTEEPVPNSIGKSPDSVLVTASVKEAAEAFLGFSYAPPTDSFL
Chain of UniProt P53350 (whole entry, looked up): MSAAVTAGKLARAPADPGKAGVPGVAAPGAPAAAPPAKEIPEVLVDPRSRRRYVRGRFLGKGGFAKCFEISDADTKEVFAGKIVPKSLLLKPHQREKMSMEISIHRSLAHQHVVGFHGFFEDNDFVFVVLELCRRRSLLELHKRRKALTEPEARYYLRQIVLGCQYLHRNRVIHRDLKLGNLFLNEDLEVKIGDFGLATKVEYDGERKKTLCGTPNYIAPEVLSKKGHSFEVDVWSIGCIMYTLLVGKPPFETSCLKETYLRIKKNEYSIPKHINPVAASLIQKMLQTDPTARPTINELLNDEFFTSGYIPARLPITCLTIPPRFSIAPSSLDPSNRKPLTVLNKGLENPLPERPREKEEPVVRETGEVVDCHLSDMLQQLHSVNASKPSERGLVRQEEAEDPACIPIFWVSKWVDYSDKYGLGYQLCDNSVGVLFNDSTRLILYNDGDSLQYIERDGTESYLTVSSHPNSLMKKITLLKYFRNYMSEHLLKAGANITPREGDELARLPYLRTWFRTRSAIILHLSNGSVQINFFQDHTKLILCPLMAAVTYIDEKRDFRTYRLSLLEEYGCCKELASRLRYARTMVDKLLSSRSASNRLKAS
Chain of UniProt O75116 (whole entry, looked up): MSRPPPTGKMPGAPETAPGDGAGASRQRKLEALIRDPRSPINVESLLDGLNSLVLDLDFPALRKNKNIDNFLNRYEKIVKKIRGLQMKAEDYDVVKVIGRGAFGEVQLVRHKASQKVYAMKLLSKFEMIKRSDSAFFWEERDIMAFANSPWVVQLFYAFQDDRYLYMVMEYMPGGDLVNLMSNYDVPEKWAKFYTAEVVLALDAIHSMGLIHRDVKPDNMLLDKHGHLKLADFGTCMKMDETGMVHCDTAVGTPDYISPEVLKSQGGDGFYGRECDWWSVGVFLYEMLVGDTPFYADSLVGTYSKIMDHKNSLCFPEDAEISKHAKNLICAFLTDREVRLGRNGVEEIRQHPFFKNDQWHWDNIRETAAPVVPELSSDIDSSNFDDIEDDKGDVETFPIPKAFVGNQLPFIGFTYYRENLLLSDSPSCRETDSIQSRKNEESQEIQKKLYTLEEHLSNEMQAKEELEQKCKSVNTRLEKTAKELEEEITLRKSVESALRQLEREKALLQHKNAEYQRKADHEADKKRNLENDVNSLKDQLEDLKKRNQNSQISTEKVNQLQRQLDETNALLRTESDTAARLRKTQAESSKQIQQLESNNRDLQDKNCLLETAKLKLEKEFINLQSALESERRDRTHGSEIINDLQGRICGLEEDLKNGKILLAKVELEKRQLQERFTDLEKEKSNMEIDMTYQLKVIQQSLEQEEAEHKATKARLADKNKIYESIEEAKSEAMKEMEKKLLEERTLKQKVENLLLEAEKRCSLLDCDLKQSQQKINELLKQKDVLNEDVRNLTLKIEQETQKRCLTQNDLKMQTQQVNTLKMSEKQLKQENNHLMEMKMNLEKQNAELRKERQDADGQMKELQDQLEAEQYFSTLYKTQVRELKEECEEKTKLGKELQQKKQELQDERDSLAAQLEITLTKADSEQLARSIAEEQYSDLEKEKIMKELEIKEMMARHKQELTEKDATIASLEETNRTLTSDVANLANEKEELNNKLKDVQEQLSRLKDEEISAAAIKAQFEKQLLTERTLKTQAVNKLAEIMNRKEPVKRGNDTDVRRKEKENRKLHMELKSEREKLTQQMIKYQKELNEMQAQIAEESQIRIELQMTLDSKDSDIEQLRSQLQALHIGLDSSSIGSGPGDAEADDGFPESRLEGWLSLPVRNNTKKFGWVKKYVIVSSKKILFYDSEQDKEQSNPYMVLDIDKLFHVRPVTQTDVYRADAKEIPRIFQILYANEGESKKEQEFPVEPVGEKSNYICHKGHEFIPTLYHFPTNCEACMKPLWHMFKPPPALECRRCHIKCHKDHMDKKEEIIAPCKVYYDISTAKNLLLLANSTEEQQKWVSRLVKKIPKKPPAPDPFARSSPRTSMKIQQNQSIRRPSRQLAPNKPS
Chain of UniProt Q09013 (whole entry, looked up): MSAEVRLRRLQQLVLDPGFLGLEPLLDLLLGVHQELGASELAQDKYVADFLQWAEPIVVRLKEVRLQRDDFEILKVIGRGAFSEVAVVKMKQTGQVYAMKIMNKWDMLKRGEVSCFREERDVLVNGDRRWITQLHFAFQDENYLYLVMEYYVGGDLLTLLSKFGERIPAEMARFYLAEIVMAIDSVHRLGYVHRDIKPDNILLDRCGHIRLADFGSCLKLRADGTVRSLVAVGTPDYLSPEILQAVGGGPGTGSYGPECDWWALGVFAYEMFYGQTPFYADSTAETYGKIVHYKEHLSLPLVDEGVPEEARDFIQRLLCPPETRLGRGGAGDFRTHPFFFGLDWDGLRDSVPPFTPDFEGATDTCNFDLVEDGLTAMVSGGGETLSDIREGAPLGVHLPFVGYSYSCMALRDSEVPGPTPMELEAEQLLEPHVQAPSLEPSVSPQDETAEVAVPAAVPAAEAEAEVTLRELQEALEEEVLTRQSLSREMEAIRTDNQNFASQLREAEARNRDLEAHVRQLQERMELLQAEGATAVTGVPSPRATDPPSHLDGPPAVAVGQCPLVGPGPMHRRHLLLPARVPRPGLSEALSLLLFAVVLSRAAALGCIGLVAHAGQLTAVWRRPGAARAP

Study 1
Target: Sal-like protein 4, full length isoform B (SALL4, Homo sapiens, UniProt Q9UJQ4-2, residues 1-616)
Technique: universal PBM
Form: double-stranded DNA, one strand shown
Sample: in vitro
Concentration: not given
Notes: 8-mer, flanks averaged, mean of replicates
Reading: higher = stronger binding
Quantity: E-score
ACACCTGC: 0.0161
GAGACACC: -0.17
GGTCGCGA: -0.212
GCTACGAC: -0.13
CACTATTA: 0.215
ACTCATTC: 0.18
CGAGAGTC: -0.192
ACTGAGCC: -0.171

Study 2
Target: Protein max, full length (MAX, Homo sapiens, UniProt P61244-2, residues 1-151)
Technique: protein-binding microarray
Form: double-stranded DNA, one strand shown
Sample: in vitro
Concentration: not given
Notes: k-mer, scored over probes, only values ≥0.25
Reading: higher = stronger binding
Quantity: E-score
ACGCGCCG: 0.262
GGCGCACA: 0.273
ACGCGAGA: 0.299
ACGCTACG: 0.307
CACCCGTG: 0.289
AATCACGG: 0.263
ATCATGCC: 0.307
ACGGGGGC: 0.279

Study 3
SMILES: Cc1cc(C)c(-n2ccn3nc(-c4cccnc4)cc23)cc1NC(=O)c1cc(C#N)cc(S(F)(F)(F)(F)F)c1
Concentration: 0.1 µM
Quantity: remaining binding
Leukocyte tyrosine kinase receptor (LTK, Homo sapiens, UniProt P29376); cell-free assay, competition with immobilised ligand: 32.8%
Serine/threonine-protein kinase MRCK gamma (CDC42BPG, Homo sapiens, UniProt Q6DT37); competition binding: 88.8%
Receptor-type tyrosine-protein kinase FLT3 (FLT3, Homo sapiens, UniProt P36888, D835Y); cell-free assay, competition with immobilised ligand: 91.4%
Phosphatidylinositol 4,5-bisphosphate 3-kinase catalytic subunit alpha isoform (PIK3CA, Homo sapiens, UniProt P42336, M1043I); cell-free assay, competition with immobilised ligand: 100%
Protein kinase C epsilon type (PRKCE, Homo sapiens, UniProt Q02156); cell-free assay, competition with immobilised ligand: 100%
Serine/threonine-protein kinase PLK1 (PLK1, Homo sapiens, UniProt P53350); cell-free assay, competition with immobilised ligand: 100%
NUAK family SNF1-like kinase 1 (NUAK1, Homo sapiens, UniProt O60285); cell-free assay, competition with immobilised ligand: 100%
Serine/threonine-protein kinase Sgk1 (SGK1, Homo sapiens, UniProt O00141); cell-free assay, competition with immobilised ligand: 100%
Myosin light chain kinase (MYLK3, Homo sapiens, UniProt Q32MK0); cell-free assay, competition with immobilised ligand: 100%
Phosphatidylinositol 4,5-bisphosphate 3-kinase catalytic subunit alpha isoform (PIK3CA, Homo sapiens, UniProt P42336); cell-free assay, competition with immobilised ligand: 87.9%
Ribosomal protein S6 kinase alpha-5, N-terminal kinase domain (RPS6KA5, Homo sapiens, UniProt O75582); cell-free assay, competition with immobilised ligand: 83.2%
Phosphatidylinositol 4,5-bisphosphate 3-kinase catalytic subunit alpha isoform (PIK3CA, Homo sapiens, UniProt P42336, Q546K); cell-free assay, competition with immobilised ligand: 100%
Tyrosine-protein kinase FRK (FRK, Homo sapiens, UniProt P42685); cell-free assay, competition with immobilised ligand: 59.1%

Study 4
SMILES: COc1cc2nccc(Oc3ccc(NC(=S)NC(=O)c4ccccc4C)cc3)c2cc1OC
Observed: enzyme activity
Action: inhibitor
Concentration: 0.5 µM
Quantity: remaining activity
Dual specificity tyrosine-phosphorylation-regulated kinase 4 (DYRK4, Homo sapiens, UniProt Q9NR20); relative to: control: 92.7%
Proto-oncogene tyrosine-protein kinase receptor Ret (RET, Homo sapiens, UniProt P07949); relative to: control: 86.7%
NT-3 growth factor receptor (NTRK3, Homo sapiens, UniProt Q16288); relative to: control: 86.1%
Myotonin-protein kinase (DMPK, Homo sapiens, UniProt Q09013); relative to: control: 102%
Myosin-IIIb (MYO3B, Homo sapiens, UniProt Q8WXR4): 83.4%
Rho-associated protein kinase 2 (ROCK2, Homo sapiens, UniProt O75116); relative to: control: 92.5%
Proto-oncogene tyrosine-protein kinase ROS (ROS1, Homo sapiens, UniProt P08922); relative to: control: 26.7%

For quick reference, copied from above (study 1):
GCTACGAC: -0.13
CACTATTA: 0.215
ACTCATTC: 0.18
